Measurements pooled from the literature.
Compare with care: the assays were run in different laboratories.
Cell line: SW-620

[BH3-][P+]1(c2ccccc2)CCC(=O)CC1 — selectivity index (MTT; 72 h; baseline: IC50 HaCaT over IC50 SW-620): 1
O=C(Nc1nnc2c1c(-c1ccc(Cl)cc1)nc1sc(=Cc3ccco3)c(=O)n12)c1ccccc1 (mixture of isomers) — cell growth (SRB; 10 µM, NCI60 single-dose screen, colon cancer; baseline: untreated): 48.9%
CCOc1cncc(-c2ccc(NC(=O)C3(c4ccnc(NS(=O)(=O)C5CC5)n4)CCOCC3)nc2)n1 — IC50 (cell growth or viability, ATP luminescence; 72 h): 122 nM
CNS(=O)(=O)Nc1nccc(Cc2c(C)c3ccc(Oc4ncccc4F)cc3oc2=O)c1F — IC50 (cell viability; 7 days): 1.64 nM
Cc1ccc([N+](=O)[O-])cc1S(=O)(=O)N(C)/N=C/c1cnc2ccc(Br)cn12 — IC50 (cell viability, MTS): 74 nM
C1=[N+]2CCCC[N+]3=Cc4ccc5[n]4[Au-]23[n]2c1ccc2-c1nc2ccccc2nc1-5.F[P-](F)(F)(F)(F)F — TGI (NCI60 five-dose screen): 5.31 -log M
[BH3-][P+]1(c2ccccc2)CCCCC1 — necrotic cells (annexin V/PI flow cytometry; IC50, 72 h): 0.35%
CCN(C(=O)c1cc(F)ccc1Oc1nncnc1N1CCC2(C1)CN([C@H](CCCN(C)CCOC)C(C)C)C2)C(C)C — GI50 (cell growth or viability; 7 days): > 10000 nM
CC(C)c1ccc(N(C)c2ccc3c(c2)OCC[C@H]3CNc2cnccc2C(=O)O)cc1 — IC50 (cell viability, CellTiter-Glo; 7 days): 29.3 nM
CCCC(CCC)C(=O)OCc1cn(-c2cc3ccccc3oc2=O)nn1 — growth percentage (NCI60 single-dose screen; 10 µM): 94.1%
C/C(=N\Nc1ncnc2sc3c(c12)CCCC3)c1cc(O)ccc1O — colony formation (7 d): decreased
O=C1CCP(=O)(c2ccccc2)CC1 — IC50 (cell growth or viability, MTT; 72 h): > 100000 nM
CN(C)CCN1CCN(c2ccc3nc(-c4ccc5nc(-c6ccc(C(F)(F)F)cc6)[nH]c5c4)[nH]c3c2)CC1 — growth percent (SRB; 10 µM, 48 h): 27%

Repeated from above:
O=C(Nc1nnc2c1c(-c1ccc(Cl)cc1)nc1sc(=Cc3ccco3)c(=O)n12)c1ccccc1 (mixture of isomers) — cell growth (SRB; 10 µM, NCI60 single-dose screen, colon cancer; baseline: untreated): 48.9%
CCOc1cncc(-c2ccc(NC(=O)C3(c4ccnc(NS(=O)(=O)C5CC5)n4)CCOCC3)nc2)n1 — IC50 (cell growth or viability, ATP luminescence; 72 h): 122 nM
